Assay results gathered from unrelated publications.
Each numbered part is a random draw from the data of one study; scales do not carry over between parts.

Series 1 — method: aptamer microarray, sandwich; molecule type: DNA with 2'F-ANA; sample: in vitro; tested at: 200 nM; added: Cy3 exosite-II aptamer, 400 nM; direction: higher = stronger binding; oligonucleotide: GGTTGGTGTGGTTGG
Target: Prothrombin, mature alpha-thrombin (F2, Homo sapiens, UniProt P00734)
Notes: whole 15-mer aptamer, many near background
Modification | mean fluorescence intensity
2'F-ANA at 1 2 3 7 9 10 11 14 15 | 261 a.u.
2'F-ANA at 7 9 12 13 15 | 681 a.u.
2'F-ANA at 1 4 5 11 14 | 47.6 a.u.
2'F-ANA at 2 3 9 12 | 1120 a.u.
2'F-ANA at 1 2 6 10 13 | 50.2 a.u.
2'F-ANA at 1 5 6 14 15 | 91.7 a.u.
2'F-ANA at 4 5 6 7 8 9 14 15 | 42.3 a.u.
2'F-ANA at 2 3 7 8 12 13 14 | 522 a.u.
2'F-ANA at 1 2 3 4 6 7 11 13 14 | 53.6 a.u.
2'F-ANA at 1 8 9 10 | 53.7 a.u.
2'F-ANA at 1 2 7 10 13 14 15 | 47 a.u.
2'F-ANA at 1 3 6 7 8 9 10 12 13 14 15 | 79.2 a.u.
2'F-ANA at 2 3 5 8 11 12 14 | 61 a.u.
2'F-ANA at 1 2 3 6 7 8 12 14 | 101 a.u.
2'F-ANA at 1 5 10 11 12 | 47.6 a.u.
2'F-ANA at 1 2 4 8 10 13 14 15 | 47.2 a.u.
2'F-ANA at 4 5 7 9 10 13 14 15 | 50.9 a.u.
2'F-ANA at 1 4 5 7 9 12 15 | 107 a.u.
2'F-ANA at 1 2 8 10 | 51.6 a.u.
2'F-ANA at 1 5 8 10 13 14 15 | 44.1 a.u.
2'F-ANA at 4 7 10 11 12 13 15 | 92 a.u.

Series 2 — method: protein binding microarray; molecule type: double-stranded DNA, one strand shown; sample: in vitro; tested at: not given; relative to: not given; direction: higher = stronger binding
Target: Histone acetyltransferase KAT6A, winged helix 2, GST fusion (KAT6A, Homo sapiens, UniProt Q92794, residues 85-181)
Notes: 8-mer, flanks averaged, mean of 2 arrays, mostly near background
Target sequence (chain): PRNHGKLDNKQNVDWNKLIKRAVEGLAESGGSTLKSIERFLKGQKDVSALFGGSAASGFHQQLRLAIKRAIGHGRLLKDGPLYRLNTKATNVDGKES
Oligonucleotide | E-score
AACCTTCG | 0.12
CGGCAGAC | 0.0637
AACCGAAT | 0.0121
ACAATAAC | -0.0271
ATTATTTA | 0.214
AAAACTTT | -0.0699
ATAAGGAC | -0.0468
CCGTTTCA | -0.218
ACGCCCAT | 0.0928
AGGAGTTG | -0.152
CCTTCTAA | -0.0695
AATTCAGG | 0.105
ACAGCAAA | 0.187
CAGCAGAC | 0.163
ATGAACTC | -0.0312
CCGACGAA | 0.088
CCTGTTCC | 0.0245
GCACTTGA | -0.111
AACAATCC | 0.0252
ATTTGGCG | 0.00724
GAGTTGGA | -0.0423
CCAGTTCA | -0.102
TCGATTCA | 0.00253
TCCTAGGA | 0.0316

Series 3 — method: RNA Bind-n-Seq; molecule type: RNA; sample: in vitro; tested at: 365 nM; relative to: no-protein control; direction: higher = stronger binding
Target: RNA binding protein fox-1 homolog 2, RRM domain, GST-SBP tag (RBFOX2, Homo sapiens, UniProt O43251-10, residues 100-194)
Notes: natural RNA segment, single round, ends assumed
Constant ends, left off below: GGGAGUUCUACAGUCCGACGAUC … UGGAAUUCUCGGGUGCCAA
Residues (chain): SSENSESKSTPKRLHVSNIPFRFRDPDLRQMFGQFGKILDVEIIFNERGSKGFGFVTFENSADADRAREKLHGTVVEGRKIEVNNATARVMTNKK
Oligonucleotide | RBNS enrichment (R)
CCCUUGCAGUGAUGUCCGUUUGUCCAGAUUCUGCCAGUCAUCACUGGACACGUCUCCUCGCAGCUGCCCUAGCAAGGGGAGACAUUGUGGUAGCUAUCAGACAUGGACAG | 0.259
AUUAUUCCAUCCAAAAUUUCUGGUGAAUUACACAGAAAUUUUUGGAAAUGGGACUUUGUGCAGGUAACCACCCUGCACUUCAGGUAAUGUUCCUGUCACAGCUGUCGACU | 0.264
UGCUGUCUGCCUAGGAAUCCUUCAGUGGUAUGGGACACUCCUCAAGUGAGCCAAAUGCCCGUUCUUUCUCCCUUCCUUGAACUCCAGGUCCUGUGCUGUGUCUGUACUCA | 0.808
GAAGAAUGAACUCAGAGGAGGUUGUUUACAUGAGGUUCUCCCACUCACCAGCUGUUGAGAGUCUGCGAUUAUGAAGAGCAGGAUCUUAUUACUUCAAUGAAAGCAUGUAA | 8.74
CUGUGGCUGAAAAUAAAAUCUUGUCUAGCACAGUUAAAGUCAUUAAAAAUAAAAAUGACAGCUUUAGCACAAUUUUAAGAAAAUGCCCCUCUCUAUUACCACAUUUUCUC | 1.06
UCUGUGGUCAAAUUCAGACUACAGGAGGUCUUUUUGAAUCAUUAUAGUUAGAAGAAGAAUCCAGUUUCUGCCUGUGAACUUAUUUGACUUUAGAUUGUCUCAUCUUGUGA | 0.481
GUGGCUUUGAGAAAAGGUACUUUCAAAAGAGGGCUUUCCAGAGCACAGCUCACAGCCAGCUGUUAGGACCCCACCCUUCUCCCUUUAUUGUGGAGGUGACUCACAGCAGA | 0.318
CACUAUUCCCCAGUCUCCCGCUGUGGGGCAGGAACAGGAAGUGACGGGAACCUUGAGGAGGAAACGCCUGUGUUAGGGAGAGAGUGGGUGCGGUGUAGAGGAUGCUCUUG | 0.857
UGUGAGGGAAAAAAAUAACUCUCAUUUGAUCAGACACUAAAUAUUUGGGGUAGGGAUUUCUGUCUUAUUUUCAAAUAGCCAGGGUUUUUCUUCAUUUUUUUGGUAUUUGC | 0.361
CCAGUAUCCUGCGAGCAGCCUUCAGAUGAAGAUGCAGAACUCUCACCUUCUCCUGCACCAUGCCUGCCUGGAUGCUGCCAUGCUCCCACCUUGAUGAUAAUGGACUGAAC | 0.916
GAUACAGUGAAACAAUUAAGGUGAGCAAAUAGUUUUAACUUUUCUUUUUUUUUUUUAAGUUUCAUUCUUCCUAGAAUAUUUUUCUAACAAUUUUUAUUUCAGCUUUAAAG | 0.922
GGACCCUAAUGCAAGUUCCAUGUUCACAGAAAAUUCAUGCACUCUGCGCAAACAGGACGAAAUGGUUGAAGGUGUGAGCUACAUAUGCAUAUCUUUAAUCACACCUAUAC | 0.477

Series 4 — method: RNA Bind-n-Seq; molecule type: RNA; sample: in vitro; tested at: 1 µM; notes: whole 134-nt RNA, ends assumed; added: 150 mM KCl; relative to: input library; direction: higher = stronger binding
Target: Ras GTPase-activating protein-binding protein 1, C-terminal RGG region (G3BP1, Homo sapiens, UniProt Q13283)
Sequence of UniProt Q13283 (whole entry, looked up): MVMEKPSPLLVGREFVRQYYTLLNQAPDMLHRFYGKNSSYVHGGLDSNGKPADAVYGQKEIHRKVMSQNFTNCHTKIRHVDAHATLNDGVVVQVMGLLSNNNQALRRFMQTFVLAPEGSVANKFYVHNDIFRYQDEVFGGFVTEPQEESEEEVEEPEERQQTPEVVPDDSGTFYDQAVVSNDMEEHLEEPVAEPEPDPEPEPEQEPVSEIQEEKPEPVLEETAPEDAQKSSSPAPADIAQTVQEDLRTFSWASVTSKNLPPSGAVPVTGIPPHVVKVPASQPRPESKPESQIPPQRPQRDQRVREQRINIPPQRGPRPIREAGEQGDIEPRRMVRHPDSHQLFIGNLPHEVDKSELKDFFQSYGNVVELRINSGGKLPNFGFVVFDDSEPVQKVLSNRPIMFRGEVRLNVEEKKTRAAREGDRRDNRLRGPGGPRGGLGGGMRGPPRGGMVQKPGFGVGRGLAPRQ
Constant ends, left off below: GGGAGUUCUACAGUCCGACGAUC … UGGAAUUCUCGGGUGUCAAGG
Oligonucleotide | log2 enrichment
UGUGCUACACAUCGUAUGUACCGAAUCGGGAAAAAAAGGGAAAAAAAGGGGAAAAAAAGGGGAAAGUAUUAUGUUACGCCGUUCGGAUCU | -0.587
UUCCGCUGUCUUUUCUGUCUACAGUUUGCGAUCCCCGCGUCCAGGAUGGAGCAGCUGAACGAACUGGAGCUGCUGAUGGAGAAGAGUUUU | -0.796
GAAGAUUGGCUUAAAAUGGCUACUGUGAUGGGAACAGUGUCUUAGGGAGAUGCAGCUUGGACUUGAGGUAAAUUGAAUACUUUACAACUG | -0.199
UUGUGGGAGGAUUUUGAGAUACUUAUUCUUUAUUUGAGCCAGUCUUGCAAGGUUAACUUCUCACUGGGCCUAGUGUGGUGCCCAGGUUUU | -1.8
UCAAGUCCUGUGCUACACAUCGUAUGUACCGAAUCGGAAAAAGGAAAGGAAAGGAAAGUAUUAUGUUACGCCGUUCGGAUCUGCACUUCC | -1.82
CCUCAAGUCCUGUGCUACACAUCGUAUGUACCGAAUCGGGGCGGCGGGGCGGAAAGUAUUAUGUUACGCCGUUCGGAUCUGCACUUCCAG | -0.667
UAGUGAUGGUCCUAAAUAGCAUGAGUGUCAGCUGGAGCGCCCGGAUCCAGAUUUUCUUAACCUUUUGCAAGCUCACAGCAAUUCUGAUAA | -1.09
CACAGACAACACGCACCCACACAGACACAGAGGGAAGGGGUUGGGAUGGGGACAGGGUGCACAGCAGGGCGGAGUAGGACCCCAGCCCCU | -0.782
GCCCUGUAAUCGUGGAGAUCCCGCACUUUGCCUCCCAUGGCCGUGGAGACCGCGAGCUCGUGGUUCUGAGGAGCGAAAACGGCUCCGUGU | -2.35
CACAGACAACACGCACCCACACAGACCCAGAGGGAAGGGGUUGGGAUGGGGACAGGGUGCACAGCAGGGCGGGGUAGGACCCCAGCCCCU | 1.61
UGCAGAUUGAUGAGUAUGAUCACUCCAAGCCCAUCCAGGGGCAACAGAAGAAGCCCUUUGAGGUGCACUGGAGGAAGCACACCCUGUCCU | -2.08
GUCCUGUGCUACACAUCGUAUGUACCGAAUCGGGGAAAAAAAGGGGAGGGGUUUGGGGAAAGUAUUAUGUUACGCCGUUCGGAUCUGCAC | 1.9
CCUGUGCUACACAUCGUAUGUACCGAAUCGGGGAAAAAGGGGUUUUUGGGGAAAAAGGGGAAAGUAUUAUGUUACGCCGUUCGGAUCUGC | 0.136
GUCCUGUGCUACACAUCGUAUGUACCGAAUCGGGUUUUUUUGGGAGGGUUUUUUUGGGAAAGUAUUAUGUUACGCCGUUCGGAUCUGCAC | -0.227

A few entries again (series 4):
Oligonucleotide | log2 enrichment
UCAAGUCCUGUGCUACACAUCGUAUGUACCGAAUCGGAAAAAGGAAAGGAAAGGAAAGUAUUAUGUUACGCCGUUCGGAUCUGCACUUCC | -1.82
CCUCAAGUCCUGUGCUACACAUCGUAUGUACCGAAUCGGGGCGGCGGGGCGGAAAGUAUUAUGUUACGCCGUUCGGAUCUGCACUUCCAG | -0.667
UAGUGAUGGUCCUAAAUAGCAUGAGUGUCAGCUGGAGCGCCCGGAUCCAGAUUUUCUUAACCUUUUGCAAGCUCACAGCAAUUCUGAUAA | -1.09
CACAGACAACACGCACCCACACAGACACAGAGGGAAGGGGUUGGGAUGGGGACAGGGUGCACAGCAGGGCGGAGUAGGACCCCAGCCCCU | -0.782
GCCCUGUAAUCGUGGAGAUCCCGCACUUUGCCUCCCAUGGCCGUGGAGACCGCGAGCUCGUGGUUCUGAGGAGCGAAAACGGCUCCGUGU | -2.35
CACAGACAACACGCACCCACACAGACCCAGAGGGAAGGGGUUGGGAUGGGGACAGGGUGCACAGCAGGGCGGGGUAGGACCCCAGCCCCU | 1.61
UGCAGAUUGAUGAGUAUGAUCACUCCAAGCCCAUCCAGGGGCAACAGAAGAAGCCCUUUGAGGUGCACUGGAGGAAGCACACCCUGUCCU | -2.08
GUCCUGUGCUACACAUCGUAUGUACCGAAUCGGGGAAAAAAAGGGGAGGGGUUUGGGGAAAGUAUUAUGUUACGCCGUUCGGAUCUGCAC | 1.9
CCUGUGCUACACAUCGUAUGUACCGAAUCGGGGAAAAAGGGGUUUUUGGGGAAAAAGGGGAAAGUAUUAUGUUACGCCGUUCGGAUCUGC | 0.136
